Measured values of several laboratories.
± gives the spread as reported.

O=C1/C(=C/c2ccc(O)c(O)c2)Oc2c1c(O)cc(O)c2-c1ccc(O)c(O)c1 — EC50 (ABTS scavenging, absorbance): 880 µM
CCCC[C@H](NC(=O)[C@@H](NC(=O)[C@H](CC(=O)O)NC(=O)[C@H](CCC(N)=O)NC(=O)[C@H](CC(C)C)NC(=O)[C@H](CC(C)C)NC(=O)[C@H](CCCN)NC(=O)[C@H](CCCNC(=N)N)NC(=O)[C@H](C)NC(=O)[C@H](CO)NC(=O)[C@H](CC(C)C)NC(=O)[C@H](CCC(N)=O)NC(=O)[C@H](CC)NC(=O)[C@H](CC(C)C)NC(=O)[C@@H](NC(=O)[C@H](CCCN)NC(=O)[C@H](CCCNC(=N)N)NC(=O)[C@H](Cc1ccc(O)cc1)NC(=O)[C@H](CO)NC(=O)[C@H](CCC(N)=O)NC(=O)[C@@H](NC(=O)[C@H](Cc1ccccc1)NC(=O)[C@@H](NC(=O)[C@H](C)NC(=O)[C@H](CC(=O)O)NC(=O)[C@H](C)NC(=O)[C@H](Cc1ccc(O)cc1)NC)[C@@H](C)CC)[C@@H](C)O)C(C)C)[C@@H](C)CC)C(=O)N[C@@H](CC(=O)O)C(=O)NCCCCNC(=N)N — relative potency (GH release; rat, male, serum; subcutaneous, 3 µg/kg, 30 min; baseline: reference GHRH agonist JI-38): 1.35
CCC1CC2C(C)=CC3C(=O)CCCC3C=CC(C)=CC2C(=O)O1 (stereo not shown) — oligomer reduction (A11 dot blot, refers to: amyloid-beta oligomers; 5XFAD mouse, cortex; oral gavage, 30 mg/kg/day, 5 days; baseline: vehicle): 7.6%
CCCC[C@H](NC(=O)[C@@H](NC(=O)[C@H](CC(=O)O)NC(=O)[C@H](CCC(N)=O)NC(=O)[C@H](CC(C)C)NC(=O)[C@H](CC(C)C)NC(=O)[C@H](CCCN)NC(=O)[C@H](CCCNC(=N)N)NC(=O)[C@H](C)NC(=O)[C@H](CO)NC(=O)[C@H](CC(C)C)NC(=O)[C@H](CCC(N)=O)NC(=O)[C@H](CC)NC(=O)[C@H](CC(C)C)NC(=O)[C@@H](NC(=O)[C@H](CCCN)NC(=O)[C@H](CCCNC(=N)N)NC(=O)[C@H](Cc1ccc(O)cc1)NC(=O)[C@H](CO)NC(=O)[C@H](CCC(N)=O)NC(=O)[C@@H](NC(=O)[C@H](Cc1ccccc1)NC(=O)[C@@H](NC(=O)[C@H](C)NC(=O)[C@H](CC(=O)O)NC(=O)[C@@H](C)NC(=O)CCc1ccc(O)cc1)[C@@H](C)CC)[C@@H](C)O)C(C)C)[C@@H](C)CC)C(=O)N[C@@H](CC(=O)O)C(=O)N[C@H](CCCNC(=N)N)C(=O)NC — relative potency (GH release; male rat, serum; subcutaneous, dose not given, 30 min; baseline: GHRH(1-29)NH2): 253
CC/C=C\C/C=C\C/C=C\C/C=C\C/C=C\CCCCOC(CC)C(=O)O (stereo not shown) — microvesicular steatosis change (APOE*3Leiden.CETP mice, high-fat/cholesterol diet; 112 mg/kg/day, 20 weeks; baseline: control): -35%
CCCC[C@H](NC(=O)[C@@H](NC(=O)[C@H](CC(=O)O)NC(=O)[C@H](CCC(N)=O)NC(=O)[C@H](CC(C)C)NC(=O)[C@H](CC(C)C)NC(=O)[C@H](CCCN)NC(=O)[C@H](CCCNC(=N)N)NC(=O)[C@H](C)NC(=O)[C@H](CO)NC(=O)[C@H](CC(C)C)NC(=O)[C@H](CCC(N)=O)NC(=O)[C@H](CC)NC(=O)[C@H](CC(C)C)NC(=O)[C@@H](NC(=O)[C@H](CCCN)NC(=O)[C@H](CCCNC(=N)N)NC(=O)[C@H](Cc1ccc(O)cc1)NC(=O)[C@H](CO)NC(=O)[C@H](CC(N)=O)NC(=O)[C@@H](NC(=O)[C@H](Cc1ccccc1)NC(=O)[C@@H](NC(=O)[C@H](C)NC(=O)[C@H](CC(=O)O)NC(=O)[C@@H](C)NC(=O)[C@H](Cc1ccc(O)cc1)NC)[C@@H](C)CC)[C@@H](C)O)C(C)C)[C@@H](C)CC)C(=O)N[C@@H](CC(=O)O)C(=O)NCCCCNC(=N)N — relative potency (GH release; rat, male, serum; subcutaneous, 3 µg/kg, 15 min; baseline: reference GHRH agonist JI-38): 1.08
CCCCC1NC(=O)c2ccccc21 (racemic) — black tail occurrence (thrombosis; mouse, carrageenan-induced thrombosis; oral, 50 mg/kg daily for 2 days, 48 h after carrageenan): 50%
COc1ccc2c(c1OC)C(C(Cl)(Cl)Cl)N1CCc3cc4c(cc3C1=C2)OCO4 (stereo not shown) — TBARS (rat, STZ-induced diabetic, liver; oral, 12 mg/kg, day 28): 2.9 ± 0.74 nmol MDA/mg protein
CCCCCCCCCCCCCCCC(=O)N[C@@H](CCC(=O)NCCCC[C@H](NC(=O)[C@H](CC(=O)O)NC(=O)[C@H](CO)NC(=O)[C@@H](NC(=O)[C@H](Cc1ccccc1)NC(=O)[C@@H](NC(=O)CNC(=O)[C@H](CCC(N)=O)NC(=O)[C@H](CO)NC(=O)[C@@H](N)Cc1c[nH]cn1)[C@@H](C)O)[C@@H](C)O)C(=O)N[C@@H](CO)C(=O)N[C@@H](CCC(=O)O)C(=O)N[C@@H](Cc1ccc(O)cc1)C(=O)N[C@@H](CC(C)C)C(=O)N[C@@H](CC(=O)O)C(=O)N[C@@H](CO)C(=O)N[C@@H](CCC(=O)O)C(=O)N[C@@H](CCCNC(=N)N)C(=O)N[C@@H](C)C(=O)N[C@@H](CCCNC(=N)N)C(=O)N[C@@H](CC(=O)O)C(=O)N[C@@H](Cc1ccccc1)C(=O)N[C@H](C(=O)N[C@@H](C)C(=O)N[C@@H](Cc1c[nH]c2ccccc12)C(=O)N[C@@H](CC(C)C)C(=O)N[C@@H](CCC(=O)O)C(=O)N[C@@H](C)C(=O)NCC(=O)NCC(=O)O)C(C)C)C(=O)O — body weight loss (diet-induced obese mouse; subcutaneous, 30 nmol/kg daily, 4 weeks; baseline: starting body weight): 30%
O=c1cc(-c2ccc(O)cc2)oc2c(-c3ccc(O)c(O)c3)c(O)cc(O)c12 — EC50 (ABTS scavenging, absorbance): 1050 µM
C=C1C[C@@]23CC[C@H]4[C@@](C)(CCC[C@@]4(C)C(=O)O[C@@H]4O[C@H](CO)[C@@H](O)[C@H](O)[C@H]4O)[C@@H]2CC[C@]1(O[C@@H]1O[C@H](CO[C@H]2O[C@H](CO)[C@@H](O)[C@H](O)[C@H]2O)[C@@H](O)[C@H](O)[C@H]1O[C@@H]1O[C@H](CO)[C@@H](O)[C@H](O)[C@H]1O)C3 — body weight (C57BL/6N mouse, high-fat diet; drinking water, 0.2 g/L, 16 weeks; baseline: vehicle): no effect
C[C@@H](O)[C@@H]1NC(=O)[C@H](CCCCN)NC(=O)[C@@H](Cc2ccc(NC(N)=O)cc2)NC(=O)[C@H](Cc2ccc(NC(=O)[C@@H]3CC(=O)NC(=O)N3)cc2)NC(=O)[C@H](NC(=O)[C@H](Cc2ccc(Cl)cc2)NC(=O)CN2CCN(CC(=O)O)CCN(CC(=O)O)CCN(CC(=O)O)CC2)CSSC[C@@H](C(=O)N[C@H](Cc2ccc(O)cc2)C(N)=O)NC1=O [gallium-68 labelled] — SUVmax (PET/CT; human neuroendocrine tumour patients, all lesions; 60 min): 21 ± 21
Sc1nnc(-c2ccccc2Cl)o1 — IC50 (nitric oxide scavenging): 79.3 ± 3.1 µM
CCCC[C@H](NC(=O)[C@@H](NC(=O)[C@H](CC(=O)O)NC(=O)[C@H](CCC(N)=O)NC(=O)[C@H](CC(C)C)NC(=O)[C@H](CC(C)C)NC(=O)[C@H](CCCN)NC(=O)[C@H](CCCNC(=N)N)NC(=O)[C@H](C)NC(=O)[C@H](CO)NC(=O)[C@H](CC(C)C)NC(=O)[C@H](CCC(N)=O)NC(=O)[C@H](CC)NC(=O)[C@H](CC(C)C)NC(=O)[C@@H](NC(=O)[C@H](CCCN)NC(=O)[C@H](CCCNC(=N)N)NC(=O)[C@H](Cc1ccc(O)cc1)NC(=O)[C@H](CO)NC(=O)[C@H](CCC(N)=O)NC(=O)[C@@H](NC(=O)[C@H](Cc1ccccc1)NC(=O)[C@@H](NC(=O)[C@H](C)NC(=O)[C@H](CC(=O)O)NC(=O)[C@@H](C)NC(=O)[C@H](Cc1ccc(O)cc1)NC)[C@@H](C)CC)[C@@H](C)O)C(C)C)[C@@H](C)CC)C(=O)N[C@@H](CC(=O)O)C(=O)N[C@@H](CCCNC(=N)N)C(=O)NC — relative potency (GH release; rat, male, serum; intravenous, 1 µg/kg, 15 min; baseline: reference GHRH agonist JI-38): 1.35
NCCCC[C@H](N)C(=O)N1CCC[C@H]1C(=O)NCC(=O)NCC(=O)O — activation energy (diketopiperazine formation, Arrhenius plot, ESI-MS; 1-propanol; 70, 80, 90 °C, 0.5% acetic acid): 23.7 ± 6.45 kcal/mol
Nc1nc2c(ncn2COCCOC(=O)CCC(=O)OC[C@H](N)C(=O)O)c(=O)[nH]1 — transport across cornea (excised rabbit cornea; 1000 µM, Na+-free buffer; baseline: Na+-containing buffer): 298%
CCCCCCOC(=O)Cc1c(C)n(C(=O)c2ccc(Cl)cc2)c2ccc(OC)cc12 — latency of nociceptive response (hot plate test; BALB/c mice; 50 mg/kg, 60 min): 13.9 ± 1.32 s
[2H]C([2H])([2H])C(c1cc2nnc(-c3cc(F)ccc3F)n2nc1OCc1ncnn1C)(C([2H])([2H])[2H])C([2H])([2H])[2H] — afterdischarge duration change (amygdala-kindled Wistar rats, amygdala; oral, 30 mg/kg, 2 h before stimulation; baseline: baseline): -64%
Cc1cc(O)c(C=O)c2c1C(=O)Oc1c(CO)c(O)c3c(c1O2)C(O)OC3=O (stereo not shown) — sperm with detached head (rat, male, streptozotocin-induced diabetes, cauda epididymis; 5 mg/kg, 9 weeks): 26.5 ± 4.85%
CC(=O)c1cnc(N)nc1N1CC[C@H]1c1nn2ccc(Cl)c2c(=O)n1-c1ccccc1 — IC50 (Th17 differentiation, refers to: IL-17A; healthy donor whole blood): 0.11 µM
CCCC[C@H](NC(=O)[C@@H](NC(=O)[C@H](CC(=O)O)NC(=O)[C@H](CCC(N)=O)NC(=O)[C@H](CC(C)C)NC(=O)[C@H](CC(C)C)NC(=O)[C@H](CCCN)NC(=O)[C@H](CCCNC(=N)N)NC(=O)[C@H](C)NC(=O)[C@H](CO)NC(=O)[C@H](CC(C)C)NC(=O)[C@H](CCC(N)=O)NC(=O)[C@H](CC)NC(=O)[C@H](CC(C)C)NC(=O)[C@@H](NC(=O)[C@H](CCCN)NC(=O)[C@H](CCCNC(=N)N)NC(=O)[C@H](Cc1ccc(O)cc1)NC(=O)[C@H](CO)NC(=O)[C@H](CCC(N)=O)NC(=O)[C@@H](NC(=O)[C@H](Cc1ccccc1)NC(=O)[C@@H](NC(=O)[C@H](C)NC(=O)[C@H](CC(=O)O)NC(=O)[C@@H](C)NC(=O)[C@H](Cc1ccc(O)cc1)NC)[C@@H](C)CC)[C@@H](C)O)C(C)C)[C@@H](C)CC)C(=O)N[C@@H](CC(=O)O)C(=O)N[C@@H](CCCNC(=N)N)C(=O)NCC — relative potency (GH release; rat, male, serum; subcutaneous, dose not given, 15 and 30 min; baseline: reference GHRH agonist JI-38): 1 to 4 fold
CCOc1c(C(C)(C)O)sc2cnc(Nc3ccc(N4CCC(N5CC6(COC6)C5)CC4)cc3OC)nc12 — left ventricular ejection fraction (echocardiography; mouse, TAC heart failure; oral, 30 mg/kg/day, 3 weeks after TAC, 7 days dosing): 46.1 ± 3.7%
CNC(=O)N(C)c1ccc(C(=O)Nc2ccc(F)cc2C(=O)Nc2ccc(Cl)cn2)cc1 — concentration doubling prothrombin time (human plasma): 10 ± 2 µM
C=C(c1ncc(C(=O)O)cn1)c1cc2c(cc1C)C(C)(C)CCC2(C)C — log2 fold change (RNA sequencing, refers to: Angptl4 mRNA; rat, brain; dose not given, 24 h, single dose; baseline: vehicle): -1.11
CC(=O)Nc1ccc(OC(=O)CCC(=O)[O][Pt-2]23([O]C(=O)CCC(=O)Oc4ccc(NC(C)=O)cc4)([NH2+][C@@H]4CCCC[C@H]4[NH2+]2)[O]C(=O)C(=O)[O]3)cc1 — CD8+ T cells (flow cytometry; BALB/c mouse, 4T1 tumour model, tumour tissue; dose not given; baseline: CD3+ cells): 13.6%

A few entries again:
CC(=O)c1cnc(N)nc1N1CC[C@H]1c1nn2ccc(Cl)c2c(=O)n1-c1ccccc1 — IC50 (Th17 differentiation, refers to: IL-17A; healthy donor whole blood): 0.11 µM
C[C@@H](O)[C@@H]1NC(=O)[C@H](CCCCN)NC(=O)[C@@H](Cc2ccc(NC(N)=O)cc2)NC(=O)[C@H](Cc2ccc(NC(=O)[C@@H]3CC(=O)NC(=O)N3)cc2)NC(=O)[C@H](NC(=O)[C@H](Cc2ccc(Cl)cc2)NC(=O)CN2CCN(CC(=O)O)CCN(CC(=O)O)CCN(CC(=O)O)CC2)CSSC[C@@H](C(=O)N[C@H](Cc2ccc(O)cc2)C(N)=O)NC1=O [gallium-68 labelled] — SUVmax (PET/CT; human neuroendocrine tumour patients, all lesions; 60 min): 21 ± 21
CCCC[C@H](NC(=O)[C@@H](NC(=O)[C@H](CC(=O)O)NC(=O)[C@H](CCC(N)=O)NC(=O)[C@H](CC(C)C)NC(=O)[C@H](CC(C)C)NC(=O)[C@H](CCCN)NC(=O)[C@H](CCCNC(=N)N)NC(=O)[C@H](C)NC(=O)[C@H](CO)NC(=O)[C@H](CC(C)C)NC(=O)[C@H](CCC(N)=O)NC(=O)[C@H](CC)NC(=O)[C@H](CC(C)C)NC(=O)[C@@H](NC(=O)[C@H](CCCN)NC(=O)[C@H](CCCNC(=N)N)NC(=O)[C@H](Cc1ccc(O)cc1)NC(=O)[C@H](CO)NC(=O)[C@H](CC(N)=O)NC(=O)[C@@H](NC(=O)[C@H](Cc1ccccc1)NC(=O)[C@@H](NC(=O)[C@H](C)NC(=O)[C@H](CC(=O)O)NC(=O)[C@@H](C)NC(=O)[C@H](Cc1ccc(O)cc1)NC)[C@@H](C)CC)[C@@H](C)O)C(C)C)[C@@H](C)CC)C(=O)N[C@@H](CC(=O)O)C(=O)NCCCCNC(=N)N — relative potency (GH release; rat, male, serum; subcutaneous, 3 µg/kg, 15 min; baseline: reference GHRH agonist JI-38): 1.08
